Published values from different studies.
Each line is one published result; not all experiments were run side by side. ± marks the error that the study gave.
Cell line: HUVEC

COC(OC)c1ccc(-c2ccc(O)cc2)c(C(=C2C=CC(=O)C=C2)c2ccc(O)cc2)c1C#Cc1ccc(O)cc1  IC50 (cell growth or viability, MTT; 48 h): > 50 µM
COc1ccc(CC[C@H]2OC(=O)[C@@H]3CCCCN3C(=O)C(=O)C(C)(C)COC(=O)C=CCCN(C)C(=O)[C@H](CC(C)C)N(C)C(=O)[C@H]3CCCN3C(=O)[C@H](Cc3ccccc3)NC(=O)[C@H](c3ccccc3)NC(=O)CCC(=O)Nc3cccc2c3)cc1OC  IC50 (thymidine uptake, inhibitor): 0.064 ± 0.015 µM
Oc1ccc(C#Cc2c(O)ccc3c2C(c2ccc(O)cc2)(c2ccc(O)cc2)c2cc(O)ccc2-3)cc1  IC50 (cell growth or viability, MTT; 48 h): > 50 µM
CC[C@H](C)[C@H](NC(=O)C[C@H](CCCCN)NC(=O)[C@H](Cc1ccccc1)NC(=O)[C@H]1CCC[C@@H]1NC(=O)CN)C(=O)N[C@H](C(=O)N[C@@H](CCCCN)CC(=O)N[C@@H](CCCCN)C(=O)N[C@H]1CCC[C@@H]1C(=O)N[C@@H](CC(C)C)C(=O)N[C@@H](CCCCN)CC(=O)N[C@@H](CC(C)C)C(=O)N[C@@H](Cc1ccccc1)C(N)=O)[C@@H](C)CC  IC50 (cytotoxicity): 18.1 µg/mL
C/C1=C\CC[C@H](C)OC(=O)C[C@H](c2ccc(O)cc2)NC(=O)[C@@H](Cc2ccc(O)c(I)c2)N(C)C(=O)[C@H](C)NC(=O)[C@@H](C)C1  GI50 (cell growth or viability): 0.0075 µM
CC[C@H](C)[C@H](NC(=O)[C@H]1CCC[C@@H]1NC(=O)[C@H](CCCCN)NC(=O)[C@H](CCCCN)NC(=O)C[C@H](C)NC(=O)[C@H](CC(C)C)NC(=O)[C@H](CCCCN)NC(=O)[C@H]1CCC[C@@H]1NC(=O)[C@H](CC(C)C)NC(=O)CN)C(=O)N[C@@H](CCCCN)C(=O)N[C@@H](CO)CC(=O)N[C@@H](Cc1ccccc1)C(N)=O  IC50 (cytotoxicity): 299 µg/mL
C/C1=C\[C@H](C)C[C@H](C)OC(=O)C[C@H](c2ccc(O)cc2)NC(=O)[C@@H](Cc2ccc(O)c(I)c2)N(C)C(=O)[C@H](C)NC(=O)[C@@H](C)C1  GI50 (cell growth or viability): 0.2 µg/mL
COc1ccc(CC[C@H]2OC(=O)[C@@H]3CCCCN3C(=O)C(=O)C(C)(C)COC(=O)C=CCCN(C)C(=O)[C@H](C)N(C)C(=O)[C@H]3CCCN3C(=O)[C@H](CO)N(C)C(=O)[C@H](Cc3ccccc3)NC(=O)CCC(=O)Nc3cccc2c3)cc1OC  IC50 (thymidine uptake, inhibitor): > 20 µM
CC[C@H](C)[C@H](NC(=O)[C@H](CCCCN)NC(=O)C[C@H](Cc1ccccc1)NC(=O)[C@H](CC(C)C)NC(=O)CN)C(=O)N[C@H](CC(=O)N[C@@H](CCCCN)C(=O)N[C@@H](CCCCN)C(=O)N[C@H](CC(=O)N[C@@H](CC(C)C)C(=O)N[C@@H](CCCCN)C(=O)N[C@@H](CO)CC(=O)N[C@@H](Cc1ccccc1)C(N)=O)[C@@H](C)CC)[C@@H](C)CC  IC50 (cytotoxicity): 14.8 µg/mL
COc1ccc(CC[C@H]2OC(=O)[C@@H]3CCCCN3C(=O)C(=O)C(C)(C)COC(=O)C=CCCN(C)C(=O)[C@H](C)N(C)C(=O)[C@H]3CCCN3C(=O)[C@H](Cc3ccccc3)N(C)C(=O)[C@H](Cc3ccccc3)NC(=O)CCC(=O)Nc3cccc2c3)cc1OC  IC50 (thymidine uptake, inhibitor): > 20 µM
O=C(O)c1ccc(-c2ccc(O)cc2)c2c1C=C(c1ccc(O)cc1)OC2(c1ccc(O)cc1)c1ccc(O)cc1  IC50 (cell growth or viability, MTT; 48 h): > 50 µM
COc1ccc(CC[C@H]2OC(=O)[C@@H]3CCCCN3C(=O)C(=O)C(C)(C)COC(=O)C=CCCN(C)C(=O)[C@H](c3ccccc3)NC(=O)[C@@H](Cc3ccccc3)N(C)C(=O)[C@@H]3CCCN3C(=O)[C@H](CC(C)C)N(C)C(=O)CCC(=O)Nc3cccc2c3)cc1OC  IC50 (thymidine uptake, inhibitor): > 20 µM
CNC(NN=Cc1ccc([N+](=O)[O-])o1)=[S+][Au-][Cl]  inhibition (total tube length, tube formation; IC10, 16 h; reference: untreated): 37.7%
CC[C@H](C)[C@H](NC(=O)[C@H](CCCCN)NC(=O)[C@H](Cc1ccccc1)NC(=O)[C@H]1CCC[C@@H]1NC(=O)[C@@H](N)CCCCN)C(=O)N[C@H](CC(=O)N[C@@H](CCCCN)C(=O)N[C@@H](CCCCN)C(=O)N[C@H]1CCC[C@@H]1C(=O)N[C@@H](C)C(=O)N[C@@H](CCCCN)C(=O)N[C@@H](CO)C(=O)N[C@H](CC(N)=O)Cc1ccccc1)[C@@H](C)CC  IC50 (cytotoxicity): > 128 µg/mL
COc1ccc(CC[C@H]2OC(=O)[C@@H]3CCCCN3C(=O)C(=O)C(C)(C)COC(=O)C=CCCN(C)C(=O)[C@H](CC(C)C)N(C)C(=O)[C@H]3CCCN3C(=O)[C@H](Cc3ccc(Cl)cc3)NC(=O)[C@H](c3ccccc3)NC(=O)CCC(=O)Nc3cccc2c3)cc1OC  IC50 (thymidine uptake, inhibitor): 0.123 ± 0.029 µM
Oc1ccc(C#Cc2cccc3c2C(c2ccc(O)cc2)(c2ccc(O)cc2)c2cc(O)ccc2-3)cc1  IC50 (cell growth or viability, MTT; 48 h): > 50 µM
CC[C@H](C)[C@H](NC(=O)[C@H](CCCCN)NC(=O)[C@H](Cc1ccccc1)NC(=O)C[C@H](CC(C)C)NC(=O)CN)C(=O)N[C@H](CC(=O)N[C@@H](CCCCN)C(=O)N[C@@H](CCCCN)C(=O)N[C@H](CC(=O)N[C@@H](C)C(=O)N[C@@H](CCCCN)C(=O)N[C@@H](CO)C(=O)N[C@H](CC(N)=O)Cc1ccccc1)[C@@H](C)CC)[C@@H](C)CC  IC50 (cytotoxicity): 51.1 µg/mL

Repeated from above:
Oc1ccc(C#Cc2c(O)ccc3c2C(c2ccc(O)cc2)(c2ccc(O)cc2)c2cc(O)ccc2-3)cc1  IC50 (cell growth or viability, MTT; 48 h): > 50 µM
